Experimental data pooled from the literature.
Compare with care: the assays were run in different laboratories. Several values in a cell are separate wells, animals, samples, runs or records. ± marks the error that the study gave.
CASP8: Caspase-8 (CASP8, Homo sapiens, UniProt Q14790)
Sequence of UniProt Q14790 (whole entry, looked up): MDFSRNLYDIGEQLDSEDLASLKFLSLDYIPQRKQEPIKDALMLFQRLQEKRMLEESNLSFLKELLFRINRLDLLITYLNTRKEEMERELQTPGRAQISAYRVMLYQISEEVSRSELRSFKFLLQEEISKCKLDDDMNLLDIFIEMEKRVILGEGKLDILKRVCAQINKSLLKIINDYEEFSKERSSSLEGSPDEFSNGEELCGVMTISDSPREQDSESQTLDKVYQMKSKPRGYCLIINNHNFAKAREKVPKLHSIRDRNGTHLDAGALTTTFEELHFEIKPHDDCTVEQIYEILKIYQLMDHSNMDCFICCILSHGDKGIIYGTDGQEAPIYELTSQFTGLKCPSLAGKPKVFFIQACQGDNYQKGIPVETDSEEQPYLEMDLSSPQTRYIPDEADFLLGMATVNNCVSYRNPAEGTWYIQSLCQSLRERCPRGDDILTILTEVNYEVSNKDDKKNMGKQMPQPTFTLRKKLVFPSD
CASP10: Caspase-10 (CASP10, Homo sapiens, UniProt Q92851)
Sequence of UniProt Q92851 (whole entry, looked up): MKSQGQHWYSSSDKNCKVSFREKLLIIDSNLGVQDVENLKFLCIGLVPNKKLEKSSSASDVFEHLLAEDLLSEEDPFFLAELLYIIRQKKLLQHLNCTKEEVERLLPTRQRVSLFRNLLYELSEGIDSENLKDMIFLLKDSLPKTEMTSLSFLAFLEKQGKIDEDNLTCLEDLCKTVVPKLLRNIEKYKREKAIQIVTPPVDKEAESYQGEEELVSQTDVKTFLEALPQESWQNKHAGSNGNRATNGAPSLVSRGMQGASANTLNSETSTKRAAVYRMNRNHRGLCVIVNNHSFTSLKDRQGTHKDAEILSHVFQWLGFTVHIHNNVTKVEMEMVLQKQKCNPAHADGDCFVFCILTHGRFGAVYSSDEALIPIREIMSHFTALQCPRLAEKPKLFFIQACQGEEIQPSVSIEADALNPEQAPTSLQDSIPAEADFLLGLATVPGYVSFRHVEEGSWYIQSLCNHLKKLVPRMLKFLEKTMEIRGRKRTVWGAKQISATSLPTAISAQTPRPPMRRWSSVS
HSD3B1: 3 beta-hydroxysteroid dehydrogenase/Delta 5-->4-isomerase type 1 (HSD3B1, Homo sapiens, UniProt P14060)
Sequence of UniProt P14060 (whole entry, looked up): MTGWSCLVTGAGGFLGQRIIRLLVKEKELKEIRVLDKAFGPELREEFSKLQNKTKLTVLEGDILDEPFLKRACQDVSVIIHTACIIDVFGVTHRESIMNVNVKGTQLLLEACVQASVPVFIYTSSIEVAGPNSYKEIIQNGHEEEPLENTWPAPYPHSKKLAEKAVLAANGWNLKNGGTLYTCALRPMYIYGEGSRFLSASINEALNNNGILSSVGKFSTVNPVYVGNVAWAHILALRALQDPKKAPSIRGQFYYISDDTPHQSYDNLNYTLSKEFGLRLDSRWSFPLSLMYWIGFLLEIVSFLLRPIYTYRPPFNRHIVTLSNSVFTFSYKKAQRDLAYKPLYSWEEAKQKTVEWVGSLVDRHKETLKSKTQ
DCPS: m7GpppX diphosphatase (DCPS, Homo sapiens, UniProt Q96C86)
Sequence of UniProt Q96C86 (whole entry, looked up): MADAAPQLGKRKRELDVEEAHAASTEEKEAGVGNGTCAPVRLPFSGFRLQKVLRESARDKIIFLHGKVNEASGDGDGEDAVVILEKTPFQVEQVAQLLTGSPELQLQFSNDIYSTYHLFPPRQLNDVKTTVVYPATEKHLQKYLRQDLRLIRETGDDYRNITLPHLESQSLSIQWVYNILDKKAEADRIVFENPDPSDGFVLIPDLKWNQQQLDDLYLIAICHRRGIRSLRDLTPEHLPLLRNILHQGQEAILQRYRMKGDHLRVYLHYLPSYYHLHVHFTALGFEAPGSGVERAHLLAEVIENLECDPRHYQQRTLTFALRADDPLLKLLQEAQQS
T1: DNA (Homo sapiens); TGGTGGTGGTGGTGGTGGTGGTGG
Sequence of UniProt P45983 (whole entry, looked up): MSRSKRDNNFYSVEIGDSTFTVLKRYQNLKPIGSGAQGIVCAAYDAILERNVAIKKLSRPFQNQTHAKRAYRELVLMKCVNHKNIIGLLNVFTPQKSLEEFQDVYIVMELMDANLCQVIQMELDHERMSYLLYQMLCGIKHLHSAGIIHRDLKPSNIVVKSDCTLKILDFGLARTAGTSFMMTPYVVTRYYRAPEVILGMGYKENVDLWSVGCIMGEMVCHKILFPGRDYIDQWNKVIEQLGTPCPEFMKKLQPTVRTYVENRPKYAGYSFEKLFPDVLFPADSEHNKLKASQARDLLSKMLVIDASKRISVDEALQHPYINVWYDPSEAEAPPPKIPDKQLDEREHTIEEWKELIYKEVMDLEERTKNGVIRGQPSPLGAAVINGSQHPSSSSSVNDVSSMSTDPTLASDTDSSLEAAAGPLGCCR
Sequence of UniProt P54577 (whole entry, looked up): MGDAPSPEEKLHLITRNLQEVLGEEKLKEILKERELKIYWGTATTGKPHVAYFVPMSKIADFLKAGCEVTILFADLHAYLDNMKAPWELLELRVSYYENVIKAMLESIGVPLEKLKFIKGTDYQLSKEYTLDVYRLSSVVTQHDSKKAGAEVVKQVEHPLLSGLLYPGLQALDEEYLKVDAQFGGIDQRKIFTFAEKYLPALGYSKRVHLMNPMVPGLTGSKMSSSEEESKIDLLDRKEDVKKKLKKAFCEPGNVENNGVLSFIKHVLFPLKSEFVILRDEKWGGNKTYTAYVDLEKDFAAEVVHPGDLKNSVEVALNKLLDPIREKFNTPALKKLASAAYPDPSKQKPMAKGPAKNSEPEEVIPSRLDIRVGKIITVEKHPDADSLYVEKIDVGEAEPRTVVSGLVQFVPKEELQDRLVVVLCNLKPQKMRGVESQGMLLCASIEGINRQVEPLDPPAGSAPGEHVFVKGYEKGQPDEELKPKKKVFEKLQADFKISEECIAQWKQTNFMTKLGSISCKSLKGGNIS
Sequence of UniProt P17706 (whole entry, looked up): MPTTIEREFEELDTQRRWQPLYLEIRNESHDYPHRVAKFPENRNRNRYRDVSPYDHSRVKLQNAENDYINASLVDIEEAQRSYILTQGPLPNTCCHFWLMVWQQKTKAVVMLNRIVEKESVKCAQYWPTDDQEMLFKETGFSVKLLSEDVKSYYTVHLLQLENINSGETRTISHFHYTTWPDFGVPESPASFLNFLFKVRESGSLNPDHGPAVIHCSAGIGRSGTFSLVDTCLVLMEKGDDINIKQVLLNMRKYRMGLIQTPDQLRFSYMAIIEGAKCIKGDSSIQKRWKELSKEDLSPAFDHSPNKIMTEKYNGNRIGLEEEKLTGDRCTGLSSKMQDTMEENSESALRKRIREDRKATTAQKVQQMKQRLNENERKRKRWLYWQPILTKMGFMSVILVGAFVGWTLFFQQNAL
Sequence of UniProt Q13148 (whole entry, looked up): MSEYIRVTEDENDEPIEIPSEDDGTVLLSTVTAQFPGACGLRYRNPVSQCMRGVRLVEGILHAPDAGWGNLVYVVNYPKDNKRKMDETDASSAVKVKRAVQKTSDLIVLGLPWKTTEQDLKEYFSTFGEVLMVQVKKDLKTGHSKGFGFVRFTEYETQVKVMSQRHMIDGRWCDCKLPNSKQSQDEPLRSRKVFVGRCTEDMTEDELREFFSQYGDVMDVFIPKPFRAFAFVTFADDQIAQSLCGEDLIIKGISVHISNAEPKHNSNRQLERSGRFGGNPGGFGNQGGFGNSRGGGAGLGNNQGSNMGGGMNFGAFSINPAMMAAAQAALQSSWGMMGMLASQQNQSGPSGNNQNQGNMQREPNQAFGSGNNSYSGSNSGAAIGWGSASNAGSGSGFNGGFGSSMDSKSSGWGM
Sequence of UniProt Q9ULD4 (whole entry, looked up): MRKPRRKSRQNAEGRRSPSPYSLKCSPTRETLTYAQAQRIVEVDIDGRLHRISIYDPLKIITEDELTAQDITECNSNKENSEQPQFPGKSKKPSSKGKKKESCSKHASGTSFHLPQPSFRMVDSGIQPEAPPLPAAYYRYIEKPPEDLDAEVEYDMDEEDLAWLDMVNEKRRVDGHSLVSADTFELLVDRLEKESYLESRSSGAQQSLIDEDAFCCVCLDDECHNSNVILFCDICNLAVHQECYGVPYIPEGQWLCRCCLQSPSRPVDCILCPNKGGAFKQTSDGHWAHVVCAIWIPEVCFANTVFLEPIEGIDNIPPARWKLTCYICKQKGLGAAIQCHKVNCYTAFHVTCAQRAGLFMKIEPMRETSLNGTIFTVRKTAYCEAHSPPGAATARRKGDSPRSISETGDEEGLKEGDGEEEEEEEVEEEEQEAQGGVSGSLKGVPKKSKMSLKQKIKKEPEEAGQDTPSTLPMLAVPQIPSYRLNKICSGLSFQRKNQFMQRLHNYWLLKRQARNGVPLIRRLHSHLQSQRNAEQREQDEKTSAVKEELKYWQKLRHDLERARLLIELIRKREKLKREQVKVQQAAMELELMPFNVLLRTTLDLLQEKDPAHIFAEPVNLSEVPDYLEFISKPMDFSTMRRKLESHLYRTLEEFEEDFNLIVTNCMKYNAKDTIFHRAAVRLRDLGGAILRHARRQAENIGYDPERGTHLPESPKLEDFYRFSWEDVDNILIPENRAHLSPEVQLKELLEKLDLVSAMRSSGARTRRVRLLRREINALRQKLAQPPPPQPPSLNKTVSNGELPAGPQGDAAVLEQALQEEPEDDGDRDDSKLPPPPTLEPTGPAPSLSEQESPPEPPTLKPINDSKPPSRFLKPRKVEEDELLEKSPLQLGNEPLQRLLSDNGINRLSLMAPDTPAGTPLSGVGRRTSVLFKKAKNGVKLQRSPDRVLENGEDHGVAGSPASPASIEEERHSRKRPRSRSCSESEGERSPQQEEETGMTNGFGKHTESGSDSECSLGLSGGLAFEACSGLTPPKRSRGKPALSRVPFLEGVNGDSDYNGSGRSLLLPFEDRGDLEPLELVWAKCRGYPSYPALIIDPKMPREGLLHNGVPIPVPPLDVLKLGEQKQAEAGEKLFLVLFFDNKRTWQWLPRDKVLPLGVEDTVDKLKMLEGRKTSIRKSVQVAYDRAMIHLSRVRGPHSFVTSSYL
Sequence of UniProt P11086 (whole entry, unmodified, looked up): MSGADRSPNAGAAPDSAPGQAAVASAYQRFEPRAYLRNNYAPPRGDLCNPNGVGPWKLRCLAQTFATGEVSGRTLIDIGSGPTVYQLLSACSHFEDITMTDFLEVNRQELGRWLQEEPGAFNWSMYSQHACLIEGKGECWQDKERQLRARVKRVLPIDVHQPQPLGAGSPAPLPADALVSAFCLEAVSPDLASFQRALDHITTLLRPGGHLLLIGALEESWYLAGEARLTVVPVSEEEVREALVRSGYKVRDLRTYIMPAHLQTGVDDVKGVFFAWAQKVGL

Compound | target | assay | system | conditions | scale | measurement | value
Cc1cn(CC(=O)N(CCNC(=O)CN(CCNC(=O)CN(CCNC(=O)CN(CCNC(=O)CN(CCNC(=O)CN(CCNC(=O)CN(CCNC(=O)CN(CCN)C(=O)Cn2cnc3c(=O)[nH]c(N)nc32)C(=O)Cn2cnc3c(N)ncnc32)C(=O)Cn2cc(C)c(=O)[nH]c2=O)C(=O)Cn2cnc3c(=O)[nH]c(N)nc32)C(=O)Cn2cc(C)c(=O)[nH]c2=O)C(=O)Cn2cnc3c(=O)[nH]c(N)nc32)C(=O)Cn2cnc3c(N)ncnc32)CC(=O)NCCN(CC(=O)NCCOCCOCC(N)=O)C(=O)Cn2cnc3c(N)ncnc32)c(=O)[nH]c1=O | complementary DNA | duplex formation, UV melting curve fit | PBS | 1 µM, 298 K | – | ΔG | -12.4 ± 0.2 kcal/mol
COc1ccccc1-c1ccncc1C(=O)Nc1nnc(OCc2ccc(Cl)cc2)s1 | DNA polymerase theta, helicase domain (POLQ, Homo sapiens, UniProt O75417) | ATPase activity, ADP-Glo | – | 0.12 µM | relative to: 0 µM cpd | remaining activity | 32%
CC(=O)N[C@@H](Cc1c[nH]c2ccccc12)C(=O)N[C@@H](CCCNC(=N)N)C(=O)N[C@@H](CO)C(=O)N[C@@H](CC(=O)O)C(=O)COC(=O)c1c(C)cccc1C | CASP8 | inhibitor | – | recombinant enzyme | – | kobs/[I] | 31000 M⁻¹ s⁻¹
Cc1cc(C)cc(COc2cc3c(cc2OCc2cc(C)cc(C)c2)C2CC(O)(Cc4cn(CCOCCOCCNC(=O)CCCCC5SCC6NC(=O)NC65)nn4)CC(C)N2CC3)c1 (stereo not shown) | SLC25A24 (Homo sapiens, UniProt Q6NUK1) | biotinylated probe pull-down | – | 10 µM probe | relative to: heavy over light | SILAC ratio | 1.78
CC(C)(C(=O)N1CCC(Nc2nc3c(c(=O)[nH]2)CCCC3)CC1)c1ccc(Cl)cc1 | MRGPRD (Homo sapiens, UniProt Q8TDS7, N157A) | miniGq recruitment, agonist, BRET | HEK293T | N157A mutant | – | Hill slope | 1.29
Cc1cnc2nc1Nc1cccc(c1)COC/C=C/COCc1cc(ccc1OCCN1CCOCC1)N2 | Mitogen-activated protein kinase kinase kinase 11 (MAP3K11, Homo sapiens, UniProt Q16584) | – | – | concentration not given, gene name MLK3 | – | percent of control | 97%
CC(=O)N[C@@H](CCC(C)C)C(=O)N[C@@H](CCCC(=O)O)C(=O)N[C@@H](CO)C(=O)N[C@@H](CC(=O)O)C(=O)COC(=O)c1c(C)cccc1C | CASP10 | enzyme activity, inhibitor | – | – | – | kinact/KI | 292000 M⁻¹ s⁻¹
CC[C@H](C)[C@H](NC(=O)[C@@H](NC(=O)[C@@H](NC(=O)[C@@H](NC(=O)[C@H](CCCCN)NC(=O)[C@H](CCC(=O)O)NC(=O)[C@H](C)N)C(C)C)C(C)C)C(C)C)C(=O)N[C@H](C(=O)N[C@@H](CCCCN)C(N)=O)[C@@H](C)O | Microtubule-associated protein tau (MAPT, Homo sapiens, UniProt P10636) | ThT fluorescence | – | 0.1-fold over protein, 30 h, added: tau 10 µM, heparin | relative to: untreated | fibrillization plateau fluorescence | 77 ± 12%
Cc1cc(C(=O)NCCNC(=O)c2cccc(COc3ccccc3C(N)=O)c2)n[nH]1 | Poly [ADP-ribose] polymerase 1 (PARP1, Homo sapiens, UniProt P09874) | enzyme activity, inhibitor | – | 0.5 µM | – | inhibition | 67%
Cc1ccc2oc(=O)cc(Cn3ccnc3)c2c1 | Alpha-1A adrenergic receptor (ADRA1A, Homo sapiens, UniProt P35348) | calcium mobilization, agonist | COS-7 | 500 µM | relative to: 3 µM ionomycin | agonist activity | 18.5 ± 3.28%
C[Si](C)(C)C[C@@H](CN)CC(=O)O | L-type calcium channel, rat | binding, radioligand binding | – | 75 µM, added: [3H](-)-desmethoxyverapamil | – | inhibition | 16%
O=C1Nc2ccc3ccc(nc3n2)CNCc2ccc3ccc(nc3n2)NC(=O)OCCCNCCCO1 | T1, DNA (Homo sapiens) | SPR | – | – | – | binding | binds
CNCc1cc(-c2coc3cc(O)ccc3c2=O)ccc1Cl | HSD3B1 | [3H]-DHEA conversion | LNCaP | 0.1 µM, normalized to protein, unit not given | relative to: vehicle | DHEA metabolism | 1.01
CCCCCC=CC=C1C(=O)C=CC1CC=CCCCC(=O)O (stereo not shown) | F-box only protein 30 (FBXO30, Homo sapiens, UniProt Q8TB52) | competitive isoTOP-ABPP | Ramos soluble proteome | 100 µM, 60 min, added: iodoacetamide probe | relative to: DMSO over compound-treated, higher = stronger cysteine blockade | isoTOP-ABPP competition ratio | 9.6
C[n+]1cn([C@@H]2O[C@H](COP(=O)([O-])OP(=O)(O)CP(=O)(O)O)[C@@H](O)[C@H]2O)c2nc(N)nc(O)c21 | DCPS | substrate, HPLC | – | concentration not given, 30 min | – | hydrolysis | 0%
Cc1cc(=O)oc2cc(NC(=O)CCCCCCCC(=O)NO)ccc12 | Histone deacetylase 8 (HDAC8, Homo sapiens, UniProt Q9BY41) | ITC | Tris-HCl buffer | concentration not given, 298 K | – | binding stoichiometry | 0.8
CC(=O)N[C@@H](Cc1ccc(O)cc1)C(=O)N[C@@H](CCCCN)C(=O)N[C@@H](C)C(=O)N[C@@H](CC(=O)O)C(=O)COC(=O)c1c(C)cccc1C | CASP8 | enzyme activity, inhibitor | – | – | – | kinact/KI | 32000 M⁻¹ s⁻¹
Nc1ncnc2c1ncn2C1OC(CN(CCCC2CNCc3c2ccc(Cl)c3Cl)CCC(N)C(=O)O)C(O)C1O (mixture of isomers) | Phenylethanolamine N-methyltransferase (PNMT, Homo sapiens, UniProt P11086) | binding, isothermal titration calorimetry | – | second site, without SAH | – | entropy term −TΔS | -20.3 ± 0.1 kcal/mol
CC[C@H](NC(=O)[C@@H](NC(=O)[C@H](CC(=O)O)NC(C)=O)[C@@H](C)O)C(=O)N[C@@H](CC(=O)O)C(=O)COC(=O)c1c(C)cccc1C | CASP8 | enzyme activity, inhibitor | – | – | – | kinact/KI | 141000 M⁻¹ s⁻¹

Compound | target | assay | system | conditions | scale | measurement | value
CCCCCCCCCCCCC/C=C/C=O | Enoyl-CoA delta isomerase 2 (ECI2, Homo sapiens, UniProt O75521) | competitive isoTOP-ABPP, item: PECI cysteine peptide | proteome, soluble, MDA-MB-231 | 100 µM, added: iodoacetamide probe | relative to: DMSO over compound-treated, higher = stronger cysteine blockade | isoTOP-ABPP competition ratio | 1.1
C[n+]1cn([C@@H]2O[C@H](COP(=O)(O)OP(=O)([O-])OP(=O)(O)OP(=O)(O)OC[C@H]3O[C@@H](n4cnc5c(=O)[nH]c(N)nc54)[C@H](O)[C@@H]3O)[C@@H](O)[C@H]2O)c2nc(N)nc(O)c21 | DCPS | substrate, HPLC | – | concentration not given, 120 min | – | hydrolysis | 100%
CCN(CC)Cc1cc(-c2coc3cc(O)ccc3c2=O)ccc1Cl | HSD3B1 | [3H]-DHEA conversion | LNCaP | 0.1 µM, normalized to protein, unit not given | relative to: vehicle | DHEA metabolism | 1.25
O=C(NO)c1ccc(Cn2c3c(c4cc(F)ccc42)SC(c2ccccc2)C3)s1 (racemic) | Histone deacetylase 8 (Schistosoma mansoni, UniProt A5H660) | X-ray crystallography | – | chain A, residue K20, within 4 Å | – | number of contacts | 13
CC1(C)C[C@@H](Nc2cccc(-c3sc(C(=O)O)c(OCC(=O)O)c3Cl)c2)CCN1S(=O)(=O)Cc1cccc(NC(=O)CN2CCC(c3ccc4c(c3)oc(=O)n4C3CCC(=O)NC3=O)CC2)c1 (stereo partly shown) | Tyrosine-protein phosphatase non-receptor type 2 (PTPN2, Homo sapiens, UniProt P17706) | degrader, bio-layer interferometry | – | 31.3 nM, biotinylated protein immobilised | higher = more binding | BLI binding response | 0.111 a.u. and 0.0967 a.u.
CCCC[C@H](NC(=O)[C@H](CC(=O)O)NC(C)=O)C(=O)N1[C@H](C(=O)N[C@@H](CC(=O)O)C(=O)COC(=O)c2c(C)cccc2C)C[C@@H]2CCCC[C@@H]21 | CASP8 | enzyme activity, inhibitor | – | – | – | kinact/KI | 90000 M⁻¹ s⁻¹
CCn1cc(-c2cccc(C(F)(F)F)c2)c2sc(C(=N)NC3CCS(=O)(=O)CC3)cc2c1=O | Transcription intermediary factor 1-alpha (TRIM24, Homo sapiens, UniProt O15164) | – | – | – | – | ΔTm | -0.6 °C
CC[C@H](C)[C@H](NC(=O)[C@@H](NC(=O)[C@H](CCCCN)NC(=O)[C@@H](NC(=O)CNC(=O)[C@@H](N)CCCNC(=N)N)[C@@H](C)O)C(C)C)C(=O)N[C@@H](CC(C)C)C(=O)N[C@@H](Cc1c[nH]cn1)C(=O)N[C@@H](CC(C)C)C(N)=O | Microtubule-associated protein tau, PHF6* peptide (MAPT, Homo sapiens, UniProt P10636) | fibril formation, ThT fluorescence | – | 1-fold of peptide, pH 7.4, added: Ac-PHF6* 25 µM, heparin | relative to: untreated | ThT fluorescence | 3 ± 1%
C=CC(=O)N1CCCC(n2c(=O)c3ncccc3n(Cc3ccc(Oc4ccccc4)cc3)c2=O)C1 (stereo not shown) | Tyrosine--tRNA ligase, cytoplasmic (YARS1, Homo sapiens, UniProt P54577) | thermal proteome profiling, item: YARS | – | treated | – | melting temperature | 43.2 °C and 48.8 °C
CCCCCC(O)/C=C/C=O (stereo not shown) | Bleomycin hydrolase (Homo sapiens, UniProt Q13867) | competitive isoTOP-ABPP | Ramos soluble proteome | 100 µM, 60 min, added: iodoacetamide probe | relative to: DMSO over compound-treated, higher = stronger cysteine blockade | isoTOP-ABPP competition ratio | 1.1
O=C(c1ccc(C(=O)N2CCC(N3CCCCC3)CC2)cc1)N1CCC(N2CCCCC2)CC1 | Lethal(3)malignant brain tumor-like protein 3, MBT domains (Homo sapiens, UniProt Q96JM7) | FRAP | human cells | 1 µM | – | diffusion coefficient | 0.124 µm2/s
Cn1cc(-c2cc(N3CCCCS3(=O)=O)ccc2N[C@H]2CC[C@H](C)CC2)c2cc[nH]c2c1=O (stereo in doubt) | Bromodomain and PHD finger-containing protein 3 (BRPF3, Homo sapiens, UniProt Q9ULD4) | binding, competition with immobilised ligand | – | 1 µM | – | remaining binding | 94%
CC(=O)N[C@H](C(=O)N[C@@H](CCC(=O)O)C(=O)N[C@@H](CO)C(=O)N[C@@H](CC(=O)O)C(=O)COC(=O)c1c(C)cccc1C)[C@@H](C)O | CASP10 | enzyme activity, inhibitor | – | – | – | kinact/KI | 66000 M⁻¹ s⁻¹
C#CCOC(=O)[C@@]1(C)C=C(C(=O)OC(C)(C)C)C(=O)CC1 | Mitogen-activated protein kinase 8 (MAPK8, Homo sapiens, UniProt P45983) | enzyme activity, D-SENSOR | – | 133.3 µM, single replicate | – | normalized kinase activity | 0.389 and 0.486 and 0.501
CC(=O)N[C@@H](CC(C)C)C(=O)N[C@@H](CCC(=O)O)C(=O)N[C@H](C(=O)N[C@@H](CC(=O)O)C(=O)COC(=O)c1c(C)cccc1C)[C@@H](C)O | CASP10 | enzyme activity, inhibitor | – | – | – | kinact/KI | 307000 M⁻¹ s⁻¹
O=C1c2sc(-c3ccc(N4CCC(F)C4)nc3F)nc2CCN1c1cccnc1 (stereo not shown) | TAR DNA-binding protein 43, aggregated (TARDBP, Homo sapiens, UniProt Q13148) | saturation autoradiography | human, FTLD-TDP type A brain sections | 31.25 nM | – | specific binding | 202 nM
CC(=O)N[C@@H](Cc1ccc(O)cc1)C(=O)N1CSC[C@H]1C(=O)N[C@@H](C)C(=O)N[C@@H](CC(=O)O)C(=O)COC(=O)c1c(C)cccc1C | CASP10 | enzyme activity, inhibitor | – | – | – | kinact/KI | 6600 M⁻¹ s⁻¹
CC(C)[C@@H]1NC(=O)[C@H](Cc2ccccc2)NC(=O)CSC[C@@H](C(N)=O)NC(=O)[C@H](CCC(=O)O)NC(=O)[C@H](CO)NC(=O)[C@H](Cc2c[nH]c3cccc(Cl)c23)NC(=O)[C@H](C2CCCCC2)NC(=O)[C@H](C(C)C)NC(=O)[C@H](Cc2ccc(O)cc2)NC(=O)[C@H](CC(=O)O)NC(=O)[C@H](Cc2c[nH]c3ccccc23)NC(=O)[C@H](Cc2ccc(N)nc2)NC(=O)[C@H](Cc2c[nH]c3ccc(Cl)cc23)NC(=O)[C@H](CCC(=O)O)NC1=O | Interleukin-1 receptor-like 2 (IL1RL2, Homo sapiens, UniProt Q9HB29) | reporter gene (SEAP), inhibitor, HEK-Blue IL-36R reporter | HEK-Blue IL-36R cells | 0.015 µM, 6 h, added: IL-36γ 1 ng/mL | – | remaining activity | 101%

Excerpt of the above:
Compound | target | assay | system | conditions | scale | measurement | value
C[n+]1cn([C@@H]2O[C@H](COP(=O)(O)OP(=O)([O-])OP(=O)(O)OP(=O)(O)OC[C@H]3O[C@@H](n4cnc5c(=O)[nH]c(N)nc54)[C@H](O)[C@@H]3O)[C@@H](O)[C@H]2O)c2nc(N)nc(O)c21 | DCPS | substrate, HPLC | – | concentration not given, 120 min | – | hydrolysis | 100%
CCN(CC)Cc1cc(-c2coc3cc(O)ccc3c2=O)ccc1Cl | HSD3B1 | [3H]-DHEA conversion | LNCaP | 0.1 µM, normalized to protein, unit not given | relative to: vehicle | DHEA metabolism | 1.25
O=C(NO)c1ccc(Cn2c3c(c4cc(F)ccc42)SC(c2ccccc2)C3)s1 (racemic) | Histone deacetylase 8 (Schistosoma mansoni, UniProt A5H660) | X-ray crystallography | – | chain A, residue K20, within 4 Å | – | number of contacts | 13
